Assay results pooled from the literature.
Parts stem from different laboratories: compare values within a part only. Changes are numbered by the printed parent chain.

Series 1
Target: CCNB3, cyclin fold, Cln2 fusion (human)
Method: yeast growth competition, sequencing
Sample: yeast
Setting: weak parent motif
Relative to: not given
Direction: higher = stronger binding
Starting sequence: BRCA2 docking peptide (human); CKKRRALDFLSRL; partner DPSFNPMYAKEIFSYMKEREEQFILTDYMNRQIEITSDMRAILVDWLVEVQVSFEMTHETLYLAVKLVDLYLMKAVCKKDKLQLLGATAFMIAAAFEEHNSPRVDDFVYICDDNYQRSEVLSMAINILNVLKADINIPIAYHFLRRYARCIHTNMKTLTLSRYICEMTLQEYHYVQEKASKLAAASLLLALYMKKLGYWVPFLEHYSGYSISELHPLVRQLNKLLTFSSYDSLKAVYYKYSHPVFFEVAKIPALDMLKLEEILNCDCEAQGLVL
Substitution | normalised enrichment score
CKKRKALDFLSRL [R5K] | 0.276
CKKRRALDFLARL [S11A] | 0.542
CKKARALDFLSRL [R4A] | 0.0666
CKKRRALDFLSRA [L13A] | 0.362
CKKRRAADFLSRL [L7A] | 0.42
AKKRRALDFLSRL [C1A] | -0.113
CAKRRALDFLSRL [K2A] | 0.367

Series 2
Target: RNA binding protein fox-1 homolog 2, RRM domain, GST-SBP tag (RBFOX2, Homo sapiens, UniProt O43251-10, residues 100-194)
Method: RNA Bind-n-Seq
Form: RNA
Sample: in vitro
Concentration: 365 nM
Setting: natural RNA segment, single round, ends assumed
Relative to: no-protein control
Direction: higher = stronger binding
Constant ends, left off below: GGGAGUUCUACAGUCCGACGAUC … UGGAAUUCUCGGGUGCCAA
Target sequence (chain): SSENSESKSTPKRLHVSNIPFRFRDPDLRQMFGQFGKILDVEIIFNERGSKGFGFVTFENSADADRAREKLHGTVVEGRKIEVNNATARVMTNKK
Strand | RBNS enrichment (R)
GGUUGCUGACCUGACCGUGAGUGCUUCAGUAUCUGGUUUGUGUCAGAACCAGACGCCAACUUUGUACUGCAUUUGGGAUCAUAUCUUUCCCCUUCUCUGUCCCCCAUUCU | 0.219
UCCUGAUGAUACAGUAAUUGAUGGCAGACAGUUCUGUCUCCUUCCCAGUUGUUAGGCUGCCCCCCUGAGCCUCACCUUGUUCACCUUGGUUUUCCGAUGAUGAGCUUCCC | 0.615
GUAACCAGUUUGCUAUGCUGCAUCUAACCAGACACACCUGACUUAGUAGUAACUCUAAGAACCCUUAACUUACAAACAACUUUGUCUCCUCUUAGACAAUAUUCAUUAAA | 0.965
CUGCAGACAGUUGGAUGAGUCCCUUAGAGAAGGCAUCCAGAGACAUAACUAAACUGAAUAUCAUCCCAUAUUGAUUUUAGGAAUUGACUCUAAAACUCUGUGCAGAAUCU | 0.55
AUAUUUUAAUGAUUCACUUGCCAAAUUACUUCCUGGGUGGUAUCAUUUCCUUAUCUCUCUGAUUAUCUUCUGGGACCCACGUCCUUUCCUCCACAUACCUACACCUUGGG | 0.382
AGGACUACAGCACACCUGGUUUCCUUUCUUUCUGCCACAGAUCCUUCACAGACGAGAGACUGUUGUCUUUGGAUUUUUCCCUCCGACUUUACUCUGUGAUUUCAGGUUCU | 0.37
GGGACGGGGCCGCUCAGGGCGUUAGGAGAAUAGAGGAAGAGAGGGCAGCUGUGAGAACCCGGCUCGUUCCGACCUGCGGAUAGUCAAGCGAUCAGAGUAUGUCUUGUGUG | 2.22
AAGUCUCUGAGAGGAGGCUGAAGAGUGUUGGGGCUCCUGGGACAUACAUGUAGAGUUCCUAGCAAAGUGGGCGCCUUUCUCGUCCACAGCAUUUAAAGAGAGGAAGGAGA | 1.3

Series 3
Target: Sal-like protein 4, full length isoform A (SALL4, Homo sapiens, UniProt Q9UJQ4, residues 1-1053)
Chain of UniProt Q9UJQ4 (whole entry, looked up): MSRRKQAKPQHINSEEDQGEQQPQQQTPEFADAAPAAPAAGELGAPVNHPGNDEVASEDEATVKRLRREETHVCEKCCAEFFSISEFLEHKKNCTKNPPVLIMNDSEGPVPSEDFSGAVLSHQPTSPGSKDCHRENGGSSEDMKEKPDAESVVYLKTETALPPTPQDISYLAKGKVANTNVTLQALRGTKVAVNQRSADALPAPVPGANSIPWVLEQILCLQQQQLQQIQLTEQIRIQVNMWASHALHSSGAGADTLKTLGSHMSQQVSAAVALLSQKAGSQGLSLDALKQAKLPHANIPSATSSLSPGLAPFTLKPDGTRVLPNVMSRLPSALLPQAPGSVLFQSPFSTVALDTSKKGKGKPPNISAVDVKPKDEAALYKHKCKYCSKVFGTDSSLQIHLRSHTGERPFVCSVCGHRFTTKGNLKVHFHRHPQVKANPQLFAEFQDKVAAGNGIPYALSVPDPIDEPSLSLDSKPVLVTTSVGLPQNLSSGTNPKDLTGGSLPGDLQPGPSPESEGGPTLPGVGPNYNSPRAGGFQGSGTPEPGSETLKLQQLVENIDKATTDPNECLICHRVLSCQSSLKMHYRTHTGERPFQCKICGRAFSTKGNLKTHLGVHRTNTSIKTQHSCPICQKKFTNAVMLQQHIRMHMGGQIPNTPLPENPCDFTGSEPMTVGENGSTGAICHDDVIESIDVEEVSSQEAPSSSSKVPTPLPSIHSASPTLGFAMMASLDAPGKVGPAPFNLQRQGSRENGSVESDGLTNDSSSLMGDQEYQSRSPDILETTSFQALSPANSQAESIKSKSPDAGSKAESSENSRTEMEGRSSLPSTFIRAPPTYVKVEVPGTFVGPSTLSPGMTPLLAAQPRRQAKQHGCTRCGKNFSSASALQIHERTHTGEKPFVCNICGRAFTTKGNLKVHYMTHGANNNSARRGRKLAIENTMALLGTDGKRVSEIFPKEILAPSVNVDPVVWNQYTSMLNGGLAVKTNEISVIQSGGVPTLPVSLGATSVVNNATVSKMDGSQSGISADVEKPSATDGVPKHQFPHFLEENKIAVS
Method: universal PBM
Form: double-stranded DNA, one strand shown
Sample: in vitro
Concentration: 600 nM
Setting: 8-mer, flanks averaged, mean of replicates
Direction: higher = stronger binding
Strand | E-score
ACACCGGG | -0.306
ACGTGTTC | -0.0364
ATTTGTGG | 0.187
GGACCAAA | -0.125
ATTTGAGA | 0.189
ATATCGAC | 0.269
CTCATAGC | -0.0301
AGGGCCTG | -0.337
ATCCGTGA | -0.0678
CCGTTAAG | -0.146
ACGTTCTG | -0.193
CGGAGAAC | -0.1
GATCGTAC | -0.125
CTTCGCCC | -0.232
AGGGGGCA | -0.312
GCATTTAA | 0.186
TGGGACAA | -0.0218
TACTAGGA | 0.0529
CCTAATAA | 0.362
ATTTTATA | 0.374
CAGCTTAG | -0.159
AGGACGGG | -0.164
GGCCAGAA | -0.188
ACTATCTC | 0.128
AAATTCGT | 0.265

Series 4
Target: Transcription factor Sp1 (SP1, Homo sapiens, UniProt P08047, residues 1-785, full length assumed)
Chain of UniProt P08047 (whole entry, looked up): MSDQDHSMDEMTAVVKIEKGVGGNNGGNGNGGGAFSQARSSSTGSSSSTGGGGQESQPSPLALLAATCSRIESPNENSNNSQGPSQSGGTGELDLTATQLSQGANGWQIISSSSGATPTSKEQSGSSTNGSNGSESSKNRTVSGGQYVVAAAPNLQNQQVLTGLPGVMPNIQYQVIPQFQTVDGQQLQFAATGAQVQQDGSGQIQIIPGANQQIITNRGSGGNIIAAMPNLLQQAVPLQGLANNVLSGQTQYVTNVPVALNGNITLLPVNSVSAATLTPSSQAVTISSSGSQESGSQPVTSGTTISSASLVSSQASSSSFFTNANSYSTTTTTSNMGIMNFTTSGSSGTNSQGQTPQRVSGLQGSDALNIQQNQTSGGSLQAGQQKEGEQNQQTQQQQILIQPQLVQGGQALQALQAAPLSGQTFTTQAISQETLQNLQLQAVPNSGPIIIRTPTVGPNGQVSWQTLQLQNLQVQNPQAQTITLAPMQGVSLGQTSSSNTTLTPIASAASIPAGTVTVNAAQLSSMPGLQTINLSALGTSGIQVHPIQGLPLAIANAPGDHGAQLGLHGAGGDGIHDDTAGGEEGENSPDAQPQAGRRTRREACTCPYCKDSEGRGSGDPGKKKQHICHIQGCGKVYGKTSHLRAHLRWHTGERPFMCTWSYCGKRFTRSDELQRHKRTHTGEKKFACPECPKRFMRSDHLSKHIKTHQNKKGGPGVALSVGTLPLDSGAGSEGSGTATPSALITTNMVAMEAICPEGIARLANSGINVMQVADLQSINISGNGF
Method: protein-binding microarray
Form: double-stranded DNA, one strand shown
Sample: in vitro
Concentration: not given
Setting: k-mer, scored over probes, only values ≥0.25
Direction: higher = stronger binding
Strand | E-score
ACATGTGG | 0.297
TCCCCTCA | 0.303
AGGTGGGG | 0.373
ACCACGCC | 0.257
AATATATG | 0.29
ACACCCCA | 0.344
GGGGTGTA | 0.303
CATCCCCA | 0.279
GAGGGGAC | 0.325
AACCCATA | 0.276
CATAACAA | 0.316
TCACCCCA | 0.354
CTACGCCC | 0.284
CGTATTAC | 0.269
ACGCCCTC | 0.263
